# Assay results pooled from the literature.
# Every numbered part comes from another study and shows a few of its results, in no order.

# Series 1
# Target: Sal-like protein 4, full length isoform A (SALL4, Homo sapiens, UniProt Q9UJQ4, residues 1-1053)
# UniProt Q9UJQ4, sequence (whole entry, looked up): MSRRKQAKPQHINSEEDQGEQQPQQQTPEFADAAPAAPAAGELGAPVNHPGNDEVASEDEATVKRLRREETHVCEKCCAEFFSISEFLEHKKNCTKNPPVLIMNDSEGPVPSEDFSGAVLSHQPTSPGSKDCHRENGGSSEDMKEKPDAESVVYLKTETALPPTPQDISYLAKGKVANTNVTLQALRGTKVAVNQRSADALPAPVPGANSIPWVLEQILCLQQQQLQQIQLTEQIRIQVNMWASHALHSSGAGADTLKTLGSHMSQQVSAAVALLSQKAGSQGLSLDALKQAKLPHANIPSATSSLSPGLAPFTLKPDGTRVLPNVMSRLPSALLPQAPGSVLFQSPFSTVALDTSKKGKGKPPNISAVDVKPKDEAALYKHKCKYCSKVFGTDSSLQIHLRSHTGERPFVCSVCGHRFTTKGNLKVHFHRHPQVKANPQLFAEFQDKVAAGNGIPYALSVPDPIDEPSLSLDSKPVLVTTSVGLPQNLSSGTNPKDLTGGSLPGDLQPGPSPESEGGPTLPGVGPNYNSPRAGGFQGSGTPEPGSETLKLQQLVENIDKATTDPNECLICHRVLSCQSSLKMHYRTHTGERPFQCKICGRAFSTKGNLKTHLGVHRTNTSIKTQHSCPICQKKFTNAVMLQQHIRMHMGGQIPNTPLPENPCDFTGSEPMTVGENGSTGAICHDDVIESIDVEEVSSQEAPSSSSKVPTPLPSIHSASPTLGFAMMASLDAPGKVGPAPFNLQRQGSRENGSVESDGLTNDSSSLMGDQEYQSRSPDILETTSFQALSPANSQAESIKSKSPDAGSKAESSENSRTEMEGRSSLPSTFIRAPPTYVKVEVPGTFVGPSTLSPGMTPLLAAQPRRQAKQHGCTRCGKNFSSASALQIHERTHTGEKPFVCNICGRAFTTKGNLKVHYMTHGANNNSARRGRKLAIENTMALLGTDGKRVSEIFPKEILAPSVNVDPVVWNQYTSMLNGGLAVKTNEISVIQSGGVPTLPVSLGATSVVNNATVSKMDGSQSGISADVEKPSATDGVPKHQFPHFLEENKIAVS
# Technique: universal PBM
# Molecule type: double-stranded DNA, one strand shown
# Medium: in vitro
# Concentration: 600 nM
# Notes: 8-mer, flanks averaged, mean of replicates
# Direction: higher = stronger binding
Sequence,E-score
ATAGCCGG,-0.0612
ACACAGCG,0.014
CGTACTTC,0.0941
ACGGTGGC,-0.23
CCAAACAC,0.00945
AATCCGGA,-0.0605
AGCTTTAG,-0.00186
ACTGGTAG,0.0221
ATTTAGCG,0.122
ATGGTTTA,0.226

# Series 2
# Target: Ras GTPase-activating protein-binding protein 1, C-terminal RGG region (G3BP1, Homo sapiens, UniProt Q13283)
# UniProt Q13283, sequence (whole entry, looked up): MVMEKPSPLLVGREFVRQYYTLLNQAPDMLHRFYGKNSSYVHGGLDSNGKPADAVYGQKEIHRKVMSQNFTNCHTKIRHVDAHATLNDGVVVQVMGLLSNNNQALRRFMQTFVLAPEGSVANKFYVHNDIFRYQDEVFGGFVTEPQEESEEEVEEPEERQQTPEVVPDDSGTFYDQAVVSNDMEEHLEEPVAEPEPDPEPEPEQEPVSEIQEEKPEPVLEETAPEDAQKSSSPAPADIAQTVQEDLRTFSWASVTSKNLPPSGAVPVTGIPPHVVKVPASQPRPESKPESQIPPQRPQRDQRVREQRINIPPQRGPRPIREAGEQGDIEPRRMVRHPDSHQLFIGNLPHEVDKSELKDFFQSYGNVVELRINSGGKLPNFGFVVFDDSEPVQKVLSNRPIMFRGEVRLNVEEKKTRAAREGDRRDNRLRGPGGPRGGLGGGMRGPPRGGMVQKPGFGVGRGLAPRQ
# Technique: RNA Bind-n-Seq
# Molecule type: RNA
# Medium: in vitro
# Concentration: 1 µM
# Notes: whole 134-nt RNA, ends assumed
# With: 150 mM KCl
# Reference: input library
# Direction: higher = stronger binding
# Shared flanks, not repeated: GGGAGUUCUACAGUCCGACGAUC … UGGAAUUCUCGGGUGUCAAGG
Sequence,log2 enrichment
CCUGUGCUACACAUCGUAUGUACCGAAUCGGGGUUUUUUUGGUUUUUUUGGGUUUUUUUGGAAAGUAUUAUGUUACGCCGUUCGGAUCUG,-1.34
CCUCAAGUCCUGUGCUACACAUCGUAUGUACCGAAUCGGGAAGGGAAGGAAGGAAAGUAUUAUGUUACGCCGUUCGGAUCUGCACUUCCA,-1.61
UAACUUUAGAGGAGGAUCUGAUGGAUAUGGCAGUGGACGUGGAUUUGGGGAUGGCUAUAAUGGGUAUGGAGGAGGACCUGGAGGUGGCUA,-0.862
UAACUUUAGAGGAGGAUCUGAUGGAUAUGGCAGUGGACGUGGAUUUGGGGAUGGCUAUAAAGGGUAUGGAGGAGGACCUGGAGGUGGCAA,-1.16
AGUCCUGUGCUACACAUCGUAUGUACCGAAUCGGGUUUGGGAAAAAGGGAAAAAGGGAAAGUAUUAUGUUACGCCGUUCGGAUCUGCACU,0.893
GCAGGAAGUAAAAACAAAUGGAAAUGCUUCGGAUAGUGGCAGGGGUGGGGGUUGCUAAGGAAAGGGUGGGAUGGGAGUGGGUAAAAAAUU,1.97
UAUGGACAAGCAUAAUGGAACAGACAGGUUUGUGAACCAGCAGUUUCAAGAGGAAAAGUUAAAUAAAUUGCAGAAGUUACUUAUUCUUUU,-1.87
UCAAGUCCUGUGCUACACAUCGUAUGUACCGAAUCGGGAAAGGGAAAGGAAAGGGAAAGUAUUAUGUUACGCCGUUCGGAUCUGCACUUC,-1.51
UCAAGUCCUGUGCUACACAUCGUAUGUACCGAAUCGGAGGUUUGGUUUUUUUGGAAAGUAUUAUGUUACGCCGUUCGGAUCUGCACUUCC,-1.15
CAAGUCCUGUGCUACACAUCGUAUGUACCGAAUCGGAAAAAGGUUUUUGGAAAGGAAAGUAUUAUGUUACGCCGUUCGGAUCUGCACUUC,-1.94
UAACUUUAGAGGAGGAUCUGAUGGAUAUGGCAGUGGACGUGGAUUUGGGGAUGGCUAUAAUGGGUAUGGAGGAGGACCGGGAGGUGGCAA,-0.653
UGGGAGGUGGAUUUUGUUUAUUUUUUUAGCUCAUUUCCAGGGGUGGGAAUUUUUUUUUAAUAUGUGUCAUGAAUAAAGUUGUAUUUGAAA,3.96

# Series 3
# Target: Histone acetyltransferase KAT6A, winged helix 2, GST fusion (KAT6A, Homo sapiens, UniProt Q92794, residues 85-181)
# Technique: protein binding microarray
# Molecule type: double-stranded DNA, one strand shown
# Medium: in vitro
# Concentration: not given
# Notes: 8-mer, flanks averaged, mean of 2 arrays, mostly near background
# Reference: not given
# Direction: higher = stronger binding
# Target sequence (chain): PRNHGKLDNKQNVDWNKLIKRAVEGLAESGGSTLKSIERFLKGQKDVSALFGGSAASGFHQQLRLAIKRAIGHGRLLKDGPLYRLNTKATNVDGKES
Sequence,E-score
GCACATAC,-0.125
GGTCATAA,0.0503
ACCAACTC,-0.0908
TAGACGGA,-0.0272
GAGGAAGA,-0.0201
CTCCGCGA,0.12
CCTGCATA,-0.108
CAAAAGTC,0.0245
ACGCGGGG,0.181
ACCACCCA,-0.0513
AGGATGGG,0.0386
CGTGCTAC,-0.0458
AGCATCGG,0.107
CATTGAAA,0.114

# Further values, each from its own experiment
Molecule,target,assay,system,conditions,scale,measurement,result
"PhoQ, residues 284 288 289 292 302 303 TLASMF","PhoP, residues 12 14 15 18 19 NHTVL (Escherichia coli, UniProt P23836)","Sort-seq, refers to: YFP reporter",E. coli,"PhoQ-PhoP variant library, with: 10 µM Mg2+","reference: high Mg2+ state, higher = stronger signaling",fold induction,2.11
